Results collected from several papers.
Protocols differ between the studies behind these lines. Several values in a cell are separate wells, animals, samples, runs or records. ± marks the error that the study gave.

Nc1cccc2c1CN(C1CCC(=O)NC1=O)C2=O (stereo not drawn)
EC50 (BRD4-HiBiT cells; BRD4 degradation rescue, inhibitor; 2 h, 50% degradation rescued, with: dBET6 500 nM): 2.47 µM

O=C(C=Cc1cc(C(=O)c2ccc(OC3CCCC3)cc2O)ccc1OCc1ccc2c(O)noc2c1)NCCOCCOCCOCCOCCOCCOCCOCCNc1cccc2c1C(=O)N(C1CCC(=O)NC1=O)C2=O (stereo not drawn)
mRNA level (FaDu cells; RT-qPCR, item: FOSL1 target genes SNAI2, BMI1; concentration not given): inhibited

CCn1cc(-c2cc(Cn3ccoc3=N)cc3c2CCN([C@@H](C)c2cc(OC)ccn2)C3=O)c(C(F)(F)F)n1
EC50 (RL95-2; cell growth, inhibitor; 120 h): 2.73 µM

CCCN1CCN(c2ccc3[nH]c(-c4ccc5[nH]c(-c6cc(OC)c(OC)c(OC)c6)nc5c4)nc3c2)CC1
growth percent (MDA-MB-435; SRB; 10 µM, 48 h): 55.1%

C[C@H](CCC(=O)NCCS(=O)(=O)O)[C@H]1CC[C@H]2[C@@H]3CC[C@@H]4C[C@H](O)CC[C@]4(C)[C@H]3CC[C@]12C
proliferation increase (human ADPKD PLD cystic cholangiocytes; cell counting; 20 µM, 24 h; baseline: untreated): 42%

CCCCC[C@H](O)/C=C/[C@H]1C(=O)C[C@H](O)[C@@H]1C/C=C\CCCC(=O)O
HTRF cAMP signal (HEK293-A2AR cells, SLCO2A1 knockout; HTRF cAMP; 5 nM): 335 a.u. and 317 a.u. and 329 a.u.

CSc1cc(Oc2ccnc3[nH]c(=O)cnc23)ccc1NC(=O)Nc1cc(C(C)(C)C)nn1-c1ccccc1
phospho-S6 ratio (patient-derived cell clone; RPPA, item: phospho ribosomal protein S6; human; 1 µM, 4 h; baseline: DMSO): 0.4

COc1ccc(C(=O)COc2ccc(N3C(=O)[C@@H]4[C@@H]5C=C[C@@H]([C@H]6C[C@@H]56)[C@@H]4C3=O)cc2)cc1
d6-EPC from d6-EPL production (Mut6; concentration not given, 24 h, with: 1 µM d6-S-EPL): no effect

NCCOc1cc(NC(=O)c2cc(OCc3ccc(F)cc3)cc(C(=O)Nc3cc(OCCN)c4ccccc4n3)n2)nc2ccccc12
selectivity ratio (HT-1080; cell viability, CellTiter-Glo; 72 h; baseline: IC50 HT-1080 over WI-38): 3.1

CN(C)c1ncnc2c1ncn2[C@@H]1O[C@H](CO)[C@@H](O)[C@H]1O
AP-TGFα release (mock-transfected cells; TGFα shedding, agonist; 1 nM; baseline: unstimulated vehicle control): -0.81% and 0.7% and -1.69%

CCCCN1C[C@H](O)[C@@H](O)[C@@H](O)[C@H]1CO
IC50 (sample E patient fibroblasts; Gb3 level lowering, LC-MS/MS, item: Gb3 d18:1/24:1; 216 h): 67.4 µM

COc1cc(/C=C/C(=O)N2CCC=CC2=O)cc(OC)c1OC
mRNA expression (MDA-MB-468; qRT-PCR, item: Bcl-xL; 30 µM, 6 h; baseline: time zero): 57.8 ± 14.6%

CCn1cc(-c2cc(Cn3ccnc3)cc3c2CCN([C@H](c2cc(OC)ccn2)C2CC2)C3=O)c(C(F)(F)F)n1
EC50 (HCC70; cell growth, inhibitor; 120 h): > 30 µM

C=Cc1c2[n-]c(c1C)/C=c1\[n-]/c(c(C)c1C=C)=C\c1[n-]c(c(CCC(=O)O)c1C)/C=c1\[n-]c(c(C)c1CCC(=O)O)=C2.[Sn+4]
fold change (SH-SY5Y; RNA-seq, item: DKK1 mRNA; 5 µM, 5 h; baseline: untreated cells): 2.15

O=C(C[C@@H](C(F)F)n1ccc(F)n1)N1CCC(O)(Cn2cnc3c(cnn3-c3ccc(F)cc3)c2=O)CC1
viable cells (CHP-212 parental; annexin V/PI flow cytometry; 1 µM, 48 h): 42.2% and 54% and 45.8%

CCCCc1nc(Cl)c(CO)n1Cc1ccc(-c2ccccc2-c2nn[nH]n2)cc1
log2 fold change (human PBMC; RNA-seq, item: SLC1A2 mRNA; 10 µg/mL, 24 h; baseline: untreated control): 1.78

Cc1nn(-c2nc3c(F)cc(F)cc3s2)c(O)c1C(c1ccc(C(F)(F)F)cc1)c1c(C)nn(-c2nc3c(F)cc(F)cc3s2)c1O
phospho-TBK1/TBK1 ratio (RAW-ISG; TBK1 phosphorylation, western blot; 10 µM, with: poly(I:C); baseline: DMSO): 1.08 and 1.1

Cn1cc(Nc2nccc(-c3ccc4c(c3)CN(C3COC3)CC[C@H]4NC(=O)c3cn(C(C)(C)C)nn3)n2)cn1
pathway activation z-score (mouse splenic B cells; item: IL-23 signalling pathway; 30 mg/kg, IgD-activated in vivo; baseline: vehicle, direction not given): 2.33

Cn1cc(-n2cnc3c(NCc4nc5cc(Cl)c(Cl)cc5[nH]4)nc(N4CCOCC4)nc32)cn1
mRNA level (MDA-MB-231; qRT-PCR, item: FANCD2; 50 nM, 6 h, unit not given; baseline: untreated): 0.894

Cn1cc(-c2ccc(-c3cncc(Cl)c3N3CCC4(CCNC4=O)CC3)cc2)cn1
log2 fold change (COLO 205; gene expression, microarray, item: CDC45 mRNA; concentration not given, 2 h; baseline: untreated cells): -2.43

CC(C)NCC(O)c1ccc(O)c(O)c1 (stereo not drawn)
sarcomere length (mouse ventricular cardiomyocytes; dose not given, 0.223 s): 1.78 µm

CC1(C)COc2ccc(F)cc2CN2c3nc4c(cnn4cc3OC[C@H]2C(F)F)C(=O)N1
Emax (Ba/F3 EML4-ALK v1, no mutation; cell viability): 99.9%

COC[C@H](NC(=O)c1cnc(C)s1)C(=O)N[C@@H](COC)C(=O)N[C@@H](Cc1ccccc1)C(=O)[C@@]1(C)CO1
EC50 (BRD4-HiBiT cells; BRD4 degradation rescue, inhibitor; 24 h, 50% degradation rescued, with: dBET6 500 nM): 0.023 µM

FC(F)(F)COCC(F)(F)F
viability (MDA-MB-231 BAX/BAK siRNA knockdown; CellTiter-Glo; concentration not given; baseline: normalised luminescence): 45.1% and 63.5%

Cc1nn(-c2nc3c(F)cc(F)cc3s2)c(O)c1C(c1ccccc1C(F)(F)F)c1c(C)nn(-c2nc3c(F)cc(F)cc3s2)c1O
inhibition (THP1-Dual; IFN luciferase reporter; 0.625 µM, with: HT-DNA): -11.1% and -2.08% and 1.16% and -11.6% and -7.53% and -0.887%

CCCC1=C(C(=O)OCC)C(c2ccc(Cl)cc2C)C2=C(CC(c3cc(OC)ccc3OC)CC2=O)N1 (mixture of isomers)
EC50 (J774.A1; cytotoxicity): > 20 µM

Cc1cc(Nc2ncc(Cl)c(Nc3ccccc3S(=O)(=O)C(C)C)n2)c(OC(C)C)cc1C1CCNCC1
log2 fold change (CLB-BAR; phosphoproteomics LC-MS/MS, item: BICD2 phosphorylation; 200 nM, 60 min; baseline: untreated): -1.68

O=C(Nc1cc(OCCN2CCCC2)c2ccccc2n1)c1cc(Cl)cc(C(=O)Nc2cc(OCCN3CCCC3)c3ccccc3n2)n1
selectivity ratio (HT-1080; cell viability, CellTiter-Glo; 72 h; baseline: IC50 HT-1080 over WI-38): 4

CSc1nc(-c2ccc(Cl)cc2)c2c(NC(=O)c3ccccc3)nnc-2[nH]1
cell growth (MDA-MB-435; SRB; 10 µM, NCI60 single-dose screen; baseline: untreated): 103%

CCOC(=O)C1=C(C)NC2=C(C(=O)OC(c3ccc(OC)c(OC)c3)C2)C1c1ccc([N+](=O)[O-])cc1 (stereo not drawn)
EC50 (J774.A1; cytotoxicity): > 20 µM

Cc1cccc(-c2[nH]c(CNc3ccccc3F)nc2-c2ccc3ncnn3c2)n1
viability (bone marrow CD138+ myeloma cells; XTT; 0.4 µM, mean of three patients): 96%

CCCC1=C(C(=O)OCC)C(c2ccccc2Cl)C2=C(CC(c3ccc(OC)c(OC)c3)OC2=O)N1 (stereo not drawn)
EC50 (J774.A1; cytotoxicity): > 20 µM

Cc1cc(OCc2nnc(SC3CCCC3)n2-c2cccnc2)ccc1-c1ccc(S(C)(=O)=O)cc1
EC50 (BRD4-HiBiT cells; BRD4 degradation rescue, inhibitor; 2 h, 50% degradation rescued, with: dBET6 500 nM): 8.71 µM

CCOC(=O)C1=C(C)NC2=C(C(=O)OC(c3ccc(OC)c(OC)c3)C2)C1c1ccccc1C (mixture of isomers)
EC50 (J774.A1; cytotoxicity): > 20 µM

Cc1cc(N2CCc3c(c(C)nn3CC34CCC(NC(=O)[C@@H]5COCCN5)(CC3)CC4)C2)c2cnn(C)c2n1
inhibition (human PBMC; qRT-PCR, item: CXCL10 mRNA; 100 nM, with: ssRNA): 99 ± 1%

[Cl][111In]([Cl])[Cl]
nucleic fraction share (U2OS-53BP1; 18 h, subcellular fraction f3): 7%

C=C[C@@]1(C)CC(=O)[C@]2(O)[C@@]3(C)[C@@H](O)CCC(C)(C)[C@@H]3[C@H](O)[C@H](OC(C)=O)[C@@]2(C)O1
Z score (MDA-MB-231 BAX/BAK siRNA knockdown; cell viability, CellTiter-Glo; direction not given): 0.737

CC[C@H](C)[C@H](NC(=O)[C@H](C)NC(=O)CNC(=O)[C@H](Cc1ccccc1)NC(=O)[C@H](CC(N)=O)NC(=O)[C@H](CC(N)=O)NC(=O)[C@H](CO)NC(=O)[C@H](CO)NC(=O)[C@H](Cc1c[nH]cn1)NC(=O)[C@@H](NC(=O)[C@H](CC(C)C)NC(=O)[C@H](Cc1ccccc1)NC(=O)[C@H](CC(N)=O)NC(=O)[C@H](C)NC(=O)[C@H](CC(C)C)NC(=O)[C@H](CCCNC(=N)N)NC(=O)[C@H](CCC(N)=O)NC(=O)[C@@H](NC(=O)[C@H](C)NC(=O)[C@@H]1CSSC[C@H](NC(=O)[C@@H](N)CCCCN)C(=O)N[C@@H](CC(N)=O)C(=O)N[C@@H]([C@@H](C)O)C(=O)N[C@@H](C)C(=O)N[C@@H]([C@@H](C)O)C(=O)N1)[C@@H](C)O)C(C)C)C(=O)N[C@@H](CC(C)C)C(=O)N[C@@H](CO)C(=O)N[C@@H](CO)C(=O)N[C@H](C(=O)N[C@@H](CC(N)=O)C(=O)N[C@H](C(=O)NCC(=O)N[C@@H](CO)C(=O)N[C@@H](CC(N)=O)C(=O)N[C@H](C(=O)N[C@@H](Cc1ccc(O)cc1)C(N)=O)[C@@H](C)O)C(C)C)[C@@H](C)O
intracellular ROS level (INS-1; DCFH-DA flow cytometry; 1 µM, unit not given; baseline: control): 5.99 and 6.08

CCc1cnc(N2CCC(c3nc(COc4ccc(-n5cnnn5)cc4)cs3)CC2)nc1
normalized enrichment score (HEK-293T; RNA-seq GSEA, item: HALLMARK_MYC_TARGETS_V2; concentration not given; direction not given): -2.4

COc1cnc2cccc(N3CCc4c(cc(Cn5ccnc5C)cc4-c4cn(C)nc4C(F)(F)F)C3=O)c2c1
EC50 (AGS; cell growth, inhibitor; 120 h): > 30 µM

CCOC(=O)C1=C(C)NC2=C(C(=O)OC(c3cccc(OC)c3)C2)C1c1ccccc1Cl (stereo not drawn)
EC50 (J774.A1; cytotoxicity): > 20 µM

CCCCCCOC(=O)[C@]1(O)C[C@@H]2O[C@@]1(C)n1c3ccccc3c3c4c(c5c6ccccc6n2c5c31)C(=O)NC4
relative cell number (SK-OV-3; ATP; 0.01 µM, 4 days, 3D U-bottom low-attachment; baseline: untreated): 108%
